Assay results pooled from the literature.
Protocols differ between the studies behind these lines. “And” joins repeats or separate records; there may be more than shown. Numbers after ± are the reported error.

SMILES	assay	system	setting	how to read	quantity	result
Cc1ccc(C(=O)N(CCCN)C(c2nc3snc(C)c3c(=O)n2Cc2ccccc2)C(C)C)cc1 (stereo not drawn)	stomatitis grade ≥3 (CTCAE)	human patients	intravenous, 18 mg/day	–	patients with adverse event	50%
CCCC1CCC(c2ccc(-c3ccc(CC)cc3)cc2)CC1 (stereo not drawn)	item: compound	human pregnant women, male fetuses, cord serum	dose not given, paired maternal-cord samples, mean	–	concentration	1.34 ng/mL
CNC(=O)c1ccc(-c2cnc3ncc(Cc4ccc5ncccc5c4)n3n2)cc1F	item: Constipation, all grades	cancer patients	oral, dose not given, dose escalation, any causality	–	patients with adverse event	16%
Cn1cc(Nc2nccc(-c3ccc4c(c3)CN(C3COC3)CC[C@H]4NC(=O)c3cn(C(C)(C)C)nn3)n2)cn1	item: CD4+ T cell count	human, clinical trial, whole blood	50 mg twice daily, follow-up	–	percent change from baseline	-3.75%
CC(C)C(=O)O[C@H]1[C@H](C)OC(=O)[C@@H]1Cc1ccccc1	soil adsorption	tested soils	geometric mean	–	Freundlich coefficient KF	3.2 mL/g
CCN1/C(=C/C(C)=O)Sc2ccc(F)cc21	–	cynomolgus monkey	oral, 10 mg/kg, 24 h post-dose	reference: pre-dose	systolic blood pressure change	107 ± 5.5%
C#Cc1cccc(Nc2ncnc3cc(OCCOC)c(OCCOC)cc23)c1	–	human, plasma	oral	–	conversion to OSI-420	~10%
C[C@@H](Oc1ccc(S(C)(=O)=O)cc1C(=O)N1C[C@@H]2C[C@]2(c2cc(C(F)(F)F)on2)C1)C(F)(F)F	–	young healthy humans, urine	oral, 50 mg, 0 to 24 h, single dose	–	fraction excreted in urine	2.09%
Cc1cnc(N2CC3(CCOCC3)C2)c(C(=O)Nc2ccc(C(=O)N3CCc4cc(C(=O)Nc5c(C)cccc5F)sc4-c4ccccc43)cc2)c1	–	human, nasal epithelial lining fluid	inhaled, 5 mg twice daily, 36 h	–	concentration	11400 ng/mL
Cn1ncc(S(=O)(=O)NC2CCSc3c(F)cccc32)c1C(=O)O (stereo not drawn)	colloidal aggregate formation, dynamic light scattering	50 mM potassium phosphate buffer	200 µM, pH 7.0, 1% DMSO	higher = more aggregation	DLS scattered light intensity	543000 counts/s
O=c1[nH]c(=O)n([C@@H]2O[C@H](CO)[C@@H](O)[C@@H]2F)cc1CCCCC[18F]	–	nude mice, RG2 tumour, blood	intravenous, dose not given, 2 h, co-injection	–	blood concentration	0.09 ± 0.03 %ID/g
C[C@@H]1CN(c2c(F)c(N)c3c(=O)c(C(=O)O)cn(C4CC4)c3c2F)C[C@H](C)N1	–	male Hartley guinea pig, anaesthetized	intravenous infusion, 3 mg/kg, 10 min infusion, post-infusion	–	QTc interval	355 ± 0.6 ms
O=C(Nc1nc2cccc(-c3ccc(CN4CCS(=O)(=O)CC4)cc3)n2n1)C1CC1	–	rheumatoid arthritis patients	oral, 100 mg twice daily, 4 weeks, regardless of relatedness	–	patients with joint swelling	8.3%
COc1cc(F)c(NS(=O)(=O)c2cc(Cl)ccc2O)cc1OC	colloidal aggregate formation, dynamic light scattering	50 mM potassium phosphate buffer	200 µM, pH 7.0, 1% DMSO	higher = more aggregation	DLS scattered light intensity	502000 counts/s
COc1ccc2[nH]c([S+]([O-])Cc3ncc(C)c(OC)c3C)nc2c1 (stereo not drawn)	–	healthy Chinese volunteers, CYP2C19 intermediate metabolizers	oral, 20 mg, enteric-coated tablets	–	t1/2	0.99 ± 0.24 h
CC(=O)Oc1ccccc1C(=O)O	–	male Hartley guinea pig, anaesthetized	intravenous infusion, 1 mg/kg, 10 min infusion, post-infusion	–	QTc interval	310 ± 0.2 ms
C[C@H]1[C@H]2N(C(=O)CN(C)N2C(=O)NCc2ccccc2)[C@@H](Cc2ccc(OP(=O)(O)O)cc2)C(=O)N1Cc1cccc2cccnc12	–	patients, plasma	intravenous infusion, 140 mg/m2 over 4 h, mean	–	AUC(0-24 h)	3350 ng·h/mL
O=C1Cc2cc(CCN3CCN(c4nsc5ccccc45)CC3)c(Cl)cc2N1	–	male Hartley guinea pig, anaesthetized	intravenous, 0.3 mg/kg, baseline before infusion	–	QTc interval	366 ± 2 ms
O=C(O)CCC(=O)O.[2H]C([2H])([2H])Oc1cc(C)c2[nH]ccc2c1CN1CC[C@@H](C2CC2)C[C@H]1c1ccc(C(=O)O)cc1	–	human, plasma	125 mg twice daily, day 1, multiple ascending dose, median	–	Tmax	4 h
Cl.[2H]C([2H])([2H])CC(=O)c1cnc(NC(=O)C2CC2)cc1Nc1cccc(-c2ncn(C([2H])([2H])[2H])n2)c1OC	geometric mean	human	oral, 20 mg once daily, day 7, fasted, liquid, multiple dose	–	AUC(0-inf)	1460 ng·h/mL

SMILES	assay	system	setting	how to read	quantity	result
CC[C@H](C)[C@H](NC(=O)[C@H](Cc1ccccc1)NC(=O)[C@H](CCC(=O)O)NC(=O)[C@H](CCCCNC(=O)COCCOCCNC(=O)COCCOCCNC(=O)CC[C@H](NC(=O)CCCCCCCCCCCCCCCCC(=O)O)C(=O)O)NC(=O)[C@H](C)NC(=O)[C@H](C)NC(=O)[C@H](CCC(N)=O)NC(=O)CNC(=O)[C@H](CCC(=O)O)NC(=O)[C@H](CC(C)C)NC(=O)[C@H](Cc1ccc(O)cc1)NC(=O)[C@H](CO)NC(=O)[C@H](CO)NC(=O)[C@@H](NC(=O)[C@H](CC(=O)O)NC(=O)[C@H](CO)NC(=O)[C@@H](NC(=O)[C@H](Cc1ccccc1)NC(=O)[C@@H](NC(=O)CNC(=O)[C@H](CCC(=O)O)NC(=O)C(C)(C)NC(=O)[C@@H](N)Cc1cnc[nH]1)[C@@H](C)O)[C@@H](C)O)C(C)C)C(=O)N[C@@H](C)C(=O)N[C@@H](Cc1c[nH]c2ccccc12)C(=O)N[C@@H](CC(C)C)C(=O)N[C@H](C(=O)N[C@@H](CCCNC(=N)N)C(=O)NCC(=O)N[C@@H](CCCNC(=N)N)C(=O)NCC(=O)O)C(C)C	hypoglycaemic clamp	type 2 diabetes patients	dose not given, nadir plasma glucose 5.5 mmol/L	–	diastolic blood pressure change	-9.4 mmHg
[O]=[Co].[O]=[Co][O][Co]=[O]	–	Crl:CD(SD) rat female, blood	oral, 734 mg Co/kg/day, 90 days	–	haemoglobin	11.1 mmol/L
CCc1cc(C(=O)NC)c2nccc(N3CCc4c(cc(Cn5ccnc5)cc4-c4cn(C)nc4C(F)(F)F)C3=O)c2c1	–	Sprague Dawley rat	oral, 50 mg/kg once daily, 7 days	reference: vehicle	change in gastrocnemius weight	-2.72%
C[C@H](O)c1cc(C(=O)N[C@@H](C)Cn2ccc(-c3ccc(C#N)c(Cl)c3)n2)n[nH]1	–	human, fasted, plasma	oral solution, 300 mg 14C-darolutamide, geometric mean	–	AUC(0-tlast)	38100 ng·h/mL
C[C@H](CS)C(=O)N1CCC[C@H]1C(=O)O	–	male Hartley guinea pig, anaesthetized	intravenous infusion, 30 mg/kg, 10 min infusion, post-infusion	–	QTc interval	337 ± 0.2 ms
c1ccc(-c2nc(N3CCC(c4ccccn4)C3)c3ccccc3n2)nc1 (stereo not drawn)	–	female Balb/c mice, blood	intravenous, 2 mg/kg, 0.083 h, mean, together with: 1-aminobenzotriazole co-dosed	–	blood concentration	2470 ng/mL
CCOc1c([C@H](C)n2nc(C)c3c(N)ncnc32)cc(Cl)c(F)c1[C@@H]1CNC(=O)C1	–	patients with indolent lymphoma, plasma	oral, 20 mg, day 15, monotherapy	–	Cmax	1580 nM
CCO[C@H]1CCN(Cc2c(OC)cc(C)c3[nH]ccc23)[C@H](c2ccc(C(=O)O)cc2)C1	–	PNH patients, active haemolysis	oral, 25 mg, 4 weeks, treatment	–	incidence of nasopharyngitis	0%
Cn1ncc(S(=O)(=O)NC2CCSc3ccc(Cl)cc32)c1C(=O)O (stereo not drawn)	colloidal aggregate formation, dynamic light scattering	50 mM potassium phosphate buffer	200 µM, pH 7.0, 1% DMSO	higher = more aggregation	DLS scattered light intensity	296000 counts/s
Cc1ccc(Sc2ccccc2N2CCNCC2)c(C)c1	item: Headache	healthy adult men	oral, 5 mg single dose, 10 day	–	participants with TEAE	0%
CNCCOC12CC3(C)CC(C)(CC(Cn4ncc(-c5ccc(N6CCc7cccc(C(=O)Nc8nc9ccccc9s8)c7C6)nc5C(=O)O)c4C)(C3)C1)C2	–	beagle dog, male, anaesthetised	intravenous bolus, 0.03 mg/kg, 60 min	reference: baseline	PR interval change	-3 ms
C[C@@H]1COCCN1c1cc(C2([S@](C)(=N)=O)CC2)nc(-c2cc[nH]c3nccc2-3)n1	–	Japanese advanced solid tumour patients	oral, 240 mg twice daily, CTCAE grade ≥3	–	Pyrexia incidence	0%
CC(C)NCC(O)COc1cccc2ccccc12 (stereo not drawn)	–	male Hartley guinea pig, anaesthetized	intravenous infusion, 3 mg/kg, 10 min infusion, post-infusion	–	QTc interval	350 ± 0.4 ms
O=S(=O)(Nc1cc(-n2cccc2)ccc1F)c1cc(Cl)cc(Cl)c1O	colloidal aggregate formation, dynamic light scattering	50 mM potassium phosphate buffer	200 µM, pH 7.0, 1% DMSO	higher = more aggregation	DLS scattered light intensity	4.08e+08 counts/s
O=[N+]([O-])c1cnc2ccc(Cl)cc2c1O	haemolysis	sheep erythrocytes	1 h, pH 7.5	–	HC50	> 128 µg/mL
C=CC(=O)N1CCC(c2ccc(C(N)=O)c(-c3ccc(Oc4ccccc4)cc3)n2)CC1	–	relapsed/refractory mantle cell lymphoma patients	oral, 100 mg twice daily, part, CTCAE v4.03	–	serious treatment-related AE rate	0%
CCN1CCN(Cc2ccc(NC(=O)c3ccc(C)c(NC(=O)c4cncc(-c5cccs5)c4)c3)cc2C(F)(F)F)CC1	LC-MS/MS	C57BL/6 mouse, plasma	intraperitoneal, 20 mg/kg single dose, 6 h	–	plasma concentration	88 ng/mL and 197 ng/mL and 131 ng/mL
COc1cc(N)c(Cl)cc1C(=O)NC1CCN(CCCOc2ccc(F)cc2)CC1OC (stereo not drawn)	–	male Hartley guinea pig, anaesthetized	intravenous infusion, 0.3 mg/kg, 10 min infusion, post-infusion	–	QTc interval	358 ± 0.7 ms
Cc1cncc(CC(=O)Nc2cccc(Cl)c2O)c1	colloidal aggregate formation, dynamic light scattering	50 mM potassium phosphate buffer	200 µM, pH 7.0, 1% DMSO	higher = more aggregation	DLS scattered light intensity	483000 counts/s

Excerpt of the above:
SMILES	assay	system	setting	how to read	quantity	result
O=C1Cc2cc(CCN3CCN(c4nsc5ccccc45)CC3)c(Cl)cc2N1	–	male Hartley guinea pig, anaesthetized	intravenous, 0.3 mg/kg, baseline before infusion	–	QTc interval	366 ± 2 ms
C=CC(=O)N1CCC(c2ccc(C(N)=O)c(-c3ccc(Oc4ccccc4)cc3)n2)CC1	–	relapsed/refractory mantle cell lymphoma patients	oral, 100 mg twice daily, part, CTCAE v4.03	–	serious treatment-related AE rate	0%
CC[C@H](C)[C@H](NC(=O)[C@H](Cc1ccccc1)NC(=O)[C@H](CCC(=O)O)NC(=O)[C@H](CCCCNC(=O)COCCOCCNC(=O)COCCOCCNC(=O)CC[C@H](NC(=O)CCCCCCCCCCCCCCCCC(=O)O)C(=O)O)NC(=O)[C@H](C)NC(=O)[C@H](C)NC(=O)[C@H](CCC(N)=O)NC(=O)CNC(=O)[C@H](CCC(=O)O)NC(=O)[C@H](CC(C)C)NC(=O)[C@H](Cc1ccc(O)cc1)NC(=O)[C@H](CO)NC(=O)[C@H](CO)NC(=O)[C@@H](NC(=O)[C@H](CC(=O)O)NC(=O)[C@H](CO)NC(=O)[C@@H](NC(=O)[C@H](Cc1ccccc1)NC(=O)[C@@H](NC(=O)CNC(=O)[C@H](CCC(=O)O)NC(=O)C(C)(C)NC(=O)[C@@H](N)Cc1cnc[nH]1)[C@@H](C)O)[C@@H](C)O)C(C)C)C(=O)N[C@@H](C)C(=O)N[C@@H](Cc1c[nH]c2ccccc12)C(=O)N[C@@H](CC(C)C)C(=O)N[C@H](C(=O)N[C@@H](CCCNC(=N)N)C(=O)NCC(=O)N[C@@H](CCCNC(=N)N)C(=O)NCC(=O)O)C(C)C	hypoglycaemic clamp	type 2 diabetes patients	dose not given, nadir plasma glucose 5.5 mmol/L	–	diastolic blood pressure change	-9.4 mmHg
